Measured values of several laboratories.
Lines come from different studies, so protocols differ. ± marks the error that the study gave.

`CN1CC[C@@H](c2c(O)cc(O)c3c(=O)cc(-c4ccc(C(F)(F)F)cc4Cl)oc23)[C@@H]1CO` — result for “patients with adverse event”: 0% (item: Hypoalbuminemia; relapsed B-cell malignancies or AML; oral, 50 mg, grade 3-4, continuous dosing).
Under “hepatocyte necrosis score”, `CC[C@H](C)[C@@H]1NC(=O)[C@@H]2CSSC[C@H](NC(=O)[C@H](CCCNC(=N)N)NC(=O)[C@@H]3CSSC[C@H](NC1=O)C(=O)N[C@@H]([C@@H](C)O)C(=O)N[C@@H](CCCNC(=N)N)C(=O)NCC(=O)N[C@@H](Cc1ccccc1)C(=O)N3)C(=O)N[C@@H](CC(C)C)C(=O)N[C@H]1CSSC[C@H](NC(=O)[C@H](C(C)C)NC(=O)CNC(=O)[C@H](CCCNC(=N)N)NC(=O)[C@H](CCCNC(=N)N)NC1=O)C(=O)N[C@@H](CCCNC(=N)N)C(=O)N2` is recorded as 1 to 2 (Sprague-Dawley rats, female, liver; 10 mg/kg; direction not given).
For `O=C(Nc1ccccc1)C1CCN(C(=O)Oc2cccnc2)CC1`, “change in external perception score” read 0 (psychotropic effects VAS; healthy women; 100 mg; baseline: pre-dose baseline, direction not given).
For `C[C@]1(CO)Cc2ncn(-c3ccc(C#N)c(Cl)c3)c2C(=O)O1`, “apparent terminal t1/2” read 4.43 to 6.13 h (human, Chinese or Japanese, plasma; single rising dose, range of means).
Under “nervous system disorder TEAE”, `Cn1c(-c2ccc(C(N)=O)cc2F)nnc1C(C)(C)Oc1c(F)cc(Cl)cc1F` is recorded as 0% (human; oral, 6 mg, single ascending dose).
For `Cc1cccc(Cn2nc(C3CC3)c3c(NC(=O)c4cnc5cc(OCCN6CCN(C)CC6)ccn45)cccc32)n1`, “all-cause adverse events” read 18.2% (CTCAE v4.03, item: decreased appetite; platinum-resistant ovarian cancer patients; oral, dose not given, with: pembrolizumab IV every 3 weeks).
For `N=C(N)NCCC[C@@H](NC(=O)[C@@H](N)Cc1ccccc1)C(=O)N[C@@H](Cc1ccccc1)C(=O)N[C@@H](CCCCN)C(N)=O`, “median amount excreted in urine” read 1.2e+06 ng (LC-MS; human; 15 mg, 11.83 h).
`COc1ccc2nc3cc(Cl)ccc3c(Nc3cc(CN4CCCC4)c(O)c(CN4CCCC4)c3)c2n1`: “white blood cell count” 9.58 10⁹/L (mouse, blood; intraperitoneal, 14 mg/kg).
`CC(C)[C@@H]1NC(=O)CNC(=O)[C@H](CC(N)=O)NC(=O)[C@H](CCCNC(=N)N)NC(=O)[C@H](Cc2ccc(O)cc2)NC(=O)[C@H](C(C)C)NC(=O)[C@@H](NC(=O)[C@@H](NC(=O)[C@H](CC(N)=O)NC(=O)[C@H](Cc2c[nH]c3ccccc23)NC(=O)[C@H](C)NC(=O)[C@H](Cc2ccccc2)NC(=O)CN)C(C)C)CSSC[C@@H](C(=O)N[C@@H](Cc2cnc[nH]2)C(=O)N[C@@H](CCCNC(=N)N)C(=O)N[C@@H](CCCNC(=N)N)C(=O)N[C@@H](C)C(=O)N[C@@H](CC(N)=O)C(N)=O)NC(=O)[C@H](C(C)C)NC(=O)[C@H](CCCNC(=N)N)NC1=O` has a spasm score of 0 (ICR mouse; ip, 10 mg/kg; direction not given).
For `C[C@]1(O)C[C@@](N)(c2ccc(-c3nc4n(c3-c3ccccc3)COc3ccncc3-4)cc2)C1`, “patients with Stomatitis TEAE” read 42.9% (human, advanced or metastatic solid tumours; intermittent, dose escalation total, any grade).
`COC[C@@H](CC(C)C)NC(=O)c1ccc(C)c(C)c1`: “PCE to total erythrocyte ratio” 0.541 (Hsd:ICR (CD-1) mouse, male, bone marrow; oral, 2000 mg/kg, 24 h).
The nausea/vomiting incidence of `CCN1[C@@H](C(=O)NC23CCC(C(=O)O)(CC2)CC3)[C@H](c2cccc(Cl)c2F)[C@]2(C(=O)Nc3cc(Cl)ccc32)C12CCCCC2` is reported as 100% (patients with advanced solid tumours; oral, 200 mg).
For `C[C@@H]1OC(=O)NN=C1c1ccc(-c2ccc(F)cc2)c(C(F)(F)F)c1`, “patients with adverse event” read 0% (phase I trial, item: Anaemia all grades; human patients; 10 mg loading then 0.5 mg daily).
`CC(C)(O)c1cc(Nc2cc(Oc3cn(C4CC4)nc3C3CCOCC3)ccn2)ccn1`: “ALT increased, grade ≥3” 0% (grade 4 glioma expansion cohort; oral, 50 mg twice daily).
`COc1ncnn2ccc(-c3cnc4nc(C)n(Cc5nnc([C@@H](C)F)o5)c4c3)c12`: “incidence of Hypotension” 7.1% (human patients; oral, dose not given, grade 1 adverse drug reaction).
For `COc1cc2c(Oc3ccc4[nH]c(C)cc4c3F)ccnc2cc1OCC1(N)CC1`, “AST elevation incidence” read 54.5% (paediatric refractory sarcoma patients; 12 mg).
Under “any TRAE incidence”, `CO[C@H]1C[C@@H]2CC[C@@H](C)[C@@](O)(O2)C(=O)C(=O)N2CCCC[C@H]2C(=O)O[C@H]([C@H](C)C[C@@H]2CC[C@@H](OC(=O)NCCOCCOCCOCCOCCOCCOCCOCCOCCC(=O)N3CCc4cc(Cn5nc(-c6ccc7oc(N)nc7c6)c6c(N)ncnc65)ccc4C3)[C@H](OC)C2)C[C@@H](O)[C@H](C)/C=C(\C)[C@@H](O)[C@@H](OC)C(=O)[C@H](C)C[C@H](C)/C=C/C=C/C=C/1C` is recorded as 91.7% (phase 1 dose escalation; advanced solid tumour patients; intravenous, 6 mg weekly, any grade).
`O=C1Nc2cc3[nH]nc(-c4ccncc4)c3cc2CN1Cc1ccccc1` — result for “patients with grade ≥3 TEAE”: 15% (item: increased GGT; patients with advanced solid tumours; intravenous, dose not given, schedules 1 and 2).
`CCc1ccc(CC/C=C/c2ccc3c(c2)C(=O)CC3)cc1`: “GGT serum activity” 0.33 U/L (Sprague-Dawley rat, female; oral, 120 mg/kg/day, 14 days).
The terminal half-life of `O[C@H]1CCCN[C@@H]1CCCn1cnc2c(Cl)c(Cl)ccc21` is reported as 4.17 h (healthy humans, plasma; oral, 150 mg, with: nintedanib 150 mg).
`CCN1CCN(Cc2ccc(Nc3ncc(F)c(-c4cc(F)c5nc6n(c5c4)[C@H](C)CCC6)n3)nc2)CC1`: “blood fibrinogen decreased incidence” 0% (Phase Ia dose escalation; patients with advanced solid tumours; dose not given, monotherapy, grade ≥3).
With `C[C@@H]1NC(=O)[C@H](CCCCNC(=O)CO/N=C/C(=O)NCCCC[C@@H]2NC(=O)[C@@H](Cc3ccccc3)NC(=O)[C@H](CC(=O)O)NC(=O)CNC(=O)[C@H](CCCNC(=N)N)NC2=O)NC(=O)CNC(=O)[C@@H]2CCCN2C(=O)[C@H](CCCCNC(=O)CO/N=C/C(=O)NCCCC[C@@H]2NC(=O)[C@@H](Cc3ccccc3)NC(=O)[C@H](CC(=O)O)NC(=O)CNC(=O)[C@H](CCCNC(=N)N)NC2=O)NC(=O)[C@H](CCCCNC(=O)CCNC(=O)CCNC(=O)CCNC(=O)[C@H](CCCCN)NC(=O)[C@H](Cc2ccccc2)NC(=O)CNC(=O)CN2CCCNCCNCCCNCC2)NC(=O)[C@H](CCCCNC(=O)CO/N=C/C(=O)NCCCC[C@@H]2NC(=O)[C@@H](Cc3ccccc3)NC(=O)[C@H](CC(=O)O)NC(=O)CNC(=O)[C@H](CCCNC(=N)N)NC2=O)NC(=O)CNC(=O)[C@@H]2CCCN2C(=O)[C@H](CCCCNC(=O)CO/N=C/C(=O)NCCCC[C@@H]2NC(=O)[C@@H](Cc3ccccc3)NC(=O)[C@H](CC(=O)O)NC(=O)CNC(=O)[C@H](CCCNC(=N)N)NC2=O)NC1=O` [copper-64 labelled] the tissue uptake was 2.44 ± 0.29 %ID/g (normal mice, intestine; intravenous, 0.74 MBq, 3 h post-injection).
`C[C@@H](NC(=O)N1C(=O)[C@H](Cc2ccnc(N)c2)[C@H]1C(=O)O)C1CCCCC1` gave a hypokalemia of 2.5% (healthy Chinese adult volunteers; continuous intravenous infusion, dose not given, 5.0 days, CTCAE 5.0, all doses).
`O=S(=O)(Nc1ccccc1)c1ccc(NC(=S)Nc2ccccc2)cc1` — result for “blood chemistry level”: 177 mg/dL (item: TRIG; female mouse, blood; oral, 5 mg/kg daily, 14 days).
For `Cc1ccc(F)c2cc(C(=O)N[C@@H]3CCC[C@H](N4CC[C@H](N(C)S(C)(=O)=O)C4)C3)[nH]c12`, the plasma concentration was 72 ng/mL (CD1 mouse, plasma; oral, 30 mg/kg, 7 h).

For quick reference, copied from above:
`O=C1Nc2cc3[nH]nc(-c4ccncc4)c3cc2CN1Cc1ccccc1` — result for “patients with grade ≥3 TEAE”: 15% (item: increased GGT; patients with advanced solid tumours; intravenous, dose not given, schedules 1 and 2).
Under “nervous system disorder TEAE”, `Cn1c(-c2ccc(C(N)=O)cc2F)nnc1C(C)(C)Oc1c(F)cc(Cl)cc1F` is recorded as 0% (human; oral, 6 mg, single ascending dose).
For `C[C@@H]1OC(=O)NN=C1c1ccc(-c2ccc(F)cc2)c(C(F)(F)F)c1`, “patients with adverse event” read 0% (phase I trial, item: Anaemia all grades; human patients; 10 mg loading then 0.5 mg daily).
